Experimental data collected from several papers.
Lines come from different studies, so protocols differ.
RET M918T: Proto-oncogene tyrosine-protein kinase receptor Ret (RET, Homo sapiens, UniProt P07949, M918T)
RET: Proto-oncogene tyrosine-protein kinase receptor Ret (RET, Homo sapiens, UniProt P07949)
RET V804L: Proto-oncogene tyrosine-protein kinase receptor Ret (RET, Homo sapiens, UniProt P07949, V804L)

| Compound | target | observed | technique | tested at | baseline | remaining binding [%] |
| --- | --- | --- | --- | --- | --- | --- |
| Cc1ccc(-c2c(/C=C(\C#N)C(=O)NC(C)C)n(CCCO)c3ncnc(N)c23)cc1 | RET M918T | cell-free assay | competition with immobilised ligand | 1 µM | – | 56 |
| CNC1C[S+]2CC[S+]3CC[S+](C1)[Ru-4]321([N]=C=S)[n]2c3ccc(OC)cc3c3c4c(c5cc(F)c[n+]1c5c32)C(=O)NC4=O (stereo not drawn) | RET | – | KinomeScan | 0.1 µM | untreated | 90 |
| CNS(=O)(=O)Nc1nccc(Cc2c(C)c3ccc(Oc4ncccc4F)cc3oc2=O)c1F | RET | cell-free assay | competition with immobilised ligand | 10 µM | – | 100 |
| Cc1cnc2nc1Nc1cccc(c1)COC/C=C/COCc1cc(ccc1OCCN1CCOCC1)N2 | RET | binding | competition with immobilised ligand | 0.1 µM | – | 23 |
| C=CC(=O)N1CCCC(n2c(=O)c3ncccc3n(Cc3ccc(Oc4ccccc4)cc3)c2=O)C1 (stereo not drawn) | RET M918T | cell-free assay | competition with immobilised ligand | 1 µM | – | 94 |
| CCN1CCN(Cc2ccc(NC(=O)c3ccc(C)c(NC(=O)c4cncc(-c5cccs5)c4)c3)cc2C(F)(F)F)CC1 | RET M918T | binding | competition with immobilised ligand | 1 µM | – | 0.1 |
| C=CC(=O)N1CCc2ccc(-n3c(=O)ccc4cnc5ccc(-c6cnn(C)c6)cc5c43)cc21 | RET | – | KINOMEscan | 1 µM | DMSO control | 100 |
| CC(C)=CC1OC(C)(C)C2C=C3C(=O)C(Cl)=CC(O)C3C3C(O)C4OC4C(=O)C132 (stereo not drawn) | RET V804L | cell-free assay | competition with immobilised ligand | 10 µM | – | 91 |
| CNC(=O)C1CCN(c2cc(C)c(F)cc2NC(=O)c2ccc(-c3cc(O)ccc3C)c(C)c2)CC1 | RET V804L | binding | competition with immobilised ligand | 1 µM | – | 97 |
| Nc1ncc2c(n1)-c1c([nH]c3ccc(C4=CCOCC4)cc13)CCC2 | RET (Homo sapiens, UniProt P07949, V804M) | binding | competition with immobilised ligand | 1 µM | – | 68 |
| Cc1cc(NC(=O)[C@H](O)c2cc(F)cc(F)c2)ccc1-c1cnc(N)c(C(=O)NC(C)C)c1 | RET M918T | binding | competition with immobilised ligand | 0.1 µM | – | 73 |
| CN1CCN(Cc2ccc(NC(=O)c3cccc(C#Cc4cnc(N)c5ncccc45)c3)cc2C(F)(F)F)CC1 | RET | cell-free assay | competition with immobilised ligand | 0.5 µM | – | 0 |
| COc1ccc(NC(=O)Nc2ccc3c(c2)C(=O)N(C(C)CO)CC(C)C(CN(C)Cc2ccc4c(c2)OCO4)O3)cc1 (stereo not drawn) | RET | binding | competition with immobilised ligand | 10 µM | – | 100 |
| CCN1CCN(Cc2ccc(C(=O)Nc3ccc(C)c(NCc4cnc5[nH]ccc5c4OC)c3)cc2C(F)(F)F)CC1 | RET V804L | binding | competition with immobilised ligand | 1 µM | – | 11 |
| COc1c(Cl)cccc1Nc1c(-c2ccncc2C#C[C@@]2(C)CCCN2C(=O)/C=C/CN(C)C)[nH]c2c1C(=O)NCC2 | RET V804L | binding | competition with immobilised ligand | 3 µM | – | 97 |
